Assay results of several laboratories.
Each line is one published result; not all experiments were run side by side. ± gives the spread as reported.

O=C(COc1ccc(Cl)cc1)NC12CC(c3nnc([C@H]4C[C@@H](OC(F)(F)F)C4)o3)(C1)C2  steady-state Ctrough (healthy human both sexes, plasma; oral, 200 mg once daily, day 14, mean): 10 µM
CN(CC#N)C(=O)C[C@H](Nc1nc2ccccc2[nH]1)c1cccc(C(F)(F)F)c1  steady-state volume of distribution (human; intravenous infusion, 5 mg/kg, 1 mg/mL formulation): 66.3 ± 22.4 L
N#CC[C@H](C1CCCC1)n1cc(-c2ncnc3[nH]ccc23)cn1  steady-state plasma level (human patients; oral, dose not given): ~500 nM
CN(C)C(=O)c1cc2cnc(Nc3ccc(N4CCNCC4)cn3)nc2n1C1CCCC1  steady-state clearance (human, advanced solid tumours, plasma; oral): 343 ± 177 mL/min
COc1cc2c(Nc3ccc(Br)cc3F)ncnc2cc1OCC1CCN(C)CC1  steady-state trough concentration (human patients, plasma; oral, 65 mg/m^2, day 42): 684 ± 315 ng/mL
N#Cc1ccc(C(c2ccc(C#N)cc2)n2cncn2)cc1  steady-state concentration (human patients, tumour extracellular fluid; 2.5 mg daily): 0.15 ± 0.02 µmol/L
Cc1cc(C)c(CNC(=O)c2cc(Cl)c3c(c2C)O[C@@](C)([C@H]2CC[C@H](N(C)C)CC2)O3)c(=O)[nH]1  steady-state apparent clearance (total) (human, plasma; oral, dose not given, cycle 1 day 15, mean): 58.1 L/h
OC[C@H]1O[C@@H](c2ccc(Cl)c(Cc3ccc(O[C@H]4CCOC4)cc3)c2)[C@H](O)[C@@H](O)[C@@H]1O  steady-state Cmax (human, plasma; oral, dose not given, multiple doses, added: evogliptin): 473 ± 117 ng/mL

A few entries again:
OC[C@H]1O[C@@H](c2ccc(Cl)c(Cc3ccc(O[C@H]4CCOC4)cc3)c2)[C@H](O)[C@@H](O)[C@@H]1O  steady-state Cmax (human, plasma; oral, dose not given, multiple doses, added: evogliptin): 473 ± 117 ng/mL
